Assay results of several laboratories.
A part holds a random share of what one study measured. “And” joins repeats or separate records; there may be more than shown.

Series 1 — organism: Sarcocystis neurona; effect on: parasite growth; concentration: 10 µM; time: 96 h
The inhibition of CC(O)(CS(=O)(=O)c1ccc(F)cc1)C(=O)Nc1ccc(C#N)c(C(F)(F)F)c1 (stereo not drawn) is reported as -15.7%.
For C=CCN1CC[C@]23c4c5ccc(O)c4O[C@H]2C(=O)CC[C@@]3(O)[C@H]1C5, the inhibition was -9.6%.
For C[C@]12CC[C@H](O)CC1=CC[C@@H]1[C@@H]2CC[C@]2(C)C(=O)CC[C@@H]12, the inhibition was -7.2%.
For NC(=NCc1ccc(Cl)cc1)SCCCc1cnc[nH]1, the inhibition was -0.8%.
CC(C)CC(N(C)C)C1(c2ccc(Cl)cc2)CCC1 (stereo not drawn) gave an inhibition of -19.3%.
CC[C@@H](C(N)=O)N1CCCC1=O has an inhibition of -14%.

Series 2 — action: degrader; technique: HiBiT; cell line: HEK293; concentration: 41.15 nM
Target: CRBN/Zinc finger protein Helios (Homo sapiens, UniProt Q96SW2+Q9UKS7)
Sequence of UniProt Q9UKS7 (whole entry, looked up): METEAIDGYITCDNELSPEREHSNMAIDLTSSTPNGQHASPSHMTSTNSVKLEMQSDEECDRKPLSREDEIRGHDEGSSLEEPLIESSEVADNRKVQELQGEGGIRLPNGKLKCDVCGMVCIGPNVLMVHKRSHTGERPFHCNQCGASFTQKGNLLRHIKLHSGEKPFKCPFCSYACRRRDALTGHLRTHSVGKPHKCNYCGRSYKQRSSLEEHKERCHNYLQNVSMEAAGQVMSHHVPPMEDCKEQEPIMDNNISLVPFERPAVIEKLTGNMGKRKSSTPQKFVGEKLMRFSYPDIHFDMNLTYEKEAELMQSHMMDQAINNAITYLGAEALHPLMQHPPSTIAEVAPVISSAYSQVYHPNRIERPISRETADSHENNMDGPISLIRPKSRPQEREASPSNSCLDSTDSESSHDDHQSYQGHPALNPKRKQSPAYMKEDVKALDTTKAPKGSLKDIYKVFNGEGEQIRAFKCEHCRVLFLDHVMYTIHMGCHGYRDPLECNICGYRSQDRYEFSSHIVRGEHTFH
Sequence of UniProt Q96SW2 (whole entry, looked up): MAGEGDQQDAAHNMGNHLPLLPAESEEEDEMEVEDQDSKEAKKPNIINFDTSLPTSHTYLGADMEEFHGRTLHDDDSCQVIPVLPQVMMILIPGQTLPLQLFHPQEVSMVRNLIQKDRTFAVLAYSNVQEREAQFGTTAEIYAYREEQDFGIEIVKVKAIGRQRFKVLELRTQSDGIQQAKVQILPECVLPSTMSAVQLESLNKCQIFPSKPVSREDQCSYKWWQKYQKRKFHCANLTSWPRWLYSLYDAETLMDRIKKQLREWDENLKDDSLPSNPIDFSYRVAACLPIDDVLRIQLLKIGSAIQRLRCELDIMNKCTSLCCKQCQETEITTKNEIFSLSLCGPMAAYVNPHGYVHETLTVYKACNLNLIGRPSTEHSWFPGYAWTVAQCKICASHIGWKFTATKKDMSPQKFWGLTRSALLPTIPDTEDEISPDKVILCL
With O=C1CCC(N2Cc3c(ccc4c3OCC43CCN(Cc4ccsc4)CC3)C2=O)C(=O)N1 (stereo not drawn) the protein remaining was 36.8%.
O=C1CCC(N2Cc3c(ccc4c3OCC43CCN(CC4CCCCC4)CC3)C2=O)C(=O)N1 (stereo not drawn) has a protein remaining of 57.3%.
O=C1CCC(N2Cc3c(ccc4c3OCC43CCN(Cc4ccccn4)CC3)C2=O)C(=O)N1 (stereo not drawn) has a protein remaining of 60.9%.
With O=C1CCC(N2Cc3c(ccc4c3OCC43CCN(Cc4ccccc4)CC3(F)F)C2=O)C(=O)N1 (stereo not drawn) the protein remaining was 67.8%.
For O=C1CCC(N2Cc3c(ccc4c3OCC43CCCN(Cc4ccccc4)CC3)C2=O)C(=O)N1 (stereo not drawn), the protein remaining was 94.9%.
O=C1CCC(N2Cc3c(ccc4c3OCC43CCN(Cc4ccccc4)C3)C2=O)C(=O)N1 (stereo not drawn) gave a protein remaining of 78.3%.

Series 3 — organism: Cryptosporidium parvum; host: neonatal calves; dose: dose not given; direction: direction not given
SMILES: CNC(=O)c1ccc(-c2cnn3ccc(C(=O)N(C)c4ccc(Cl)c(C(=O)OC)c4)cc23)cc1
For day 5, second reading: “fecal consistency score” read 1 and 2.
The “fecal consistency score” was 1 and 2 (day 7 post-treatment).
day 0 post-treatment — “fecal consistency score”: 3.
For day 14 post-treatment: “fecal consistency score” read 1 and 2.
day 9 post-treatment — “fecal consistency score”: 1 and 2.

Series 4 — cell line: mouse MPNST tumor cells; technique: high-content immunofluorescence imaging; item: nuclear SOX9; concentration: 10 µM; time: 12 h; setting: mean of 2 replicates; reference: DMSO control; direction: higher = more nuclear SOX9
Cc1cc(Cl)ccc1OCCNC(=O)c1cccs1: “nuclear SOX9 intensity” 111 % of DMSO.
For CNC(=O)Oc1ccc2c(c1)[C@]1(C)CCN(C)[C@@H]1N2C, “nuclear SOX9 intensity” read 104 % of DMSO.
Under “nuclear SOX9 intensity”, CN1CC2CN(c3ccc(-c4ccccc4)nn3)CC2C1 (stereo not drawn) is recorded as 118 % of DMSO.
CCOC(=O)Nc1ccc(NCc2c(C)cc(C)cc2C)cc1N — result for “nuclear SOX9 intensity”: 180 % of DMSO.
CN[C@@H]1Cc2cccc3[nH]c(=O)n(c23)C1 — result for “nuclear SOX9 intensity”: 95 % of DMSO.
COc1cc2c(cc1O)C(CCc1ccc(Cl)cc1)N(C)CC2 (stereo not drawn): “nuclear SOX9 intensity” 142 % of DMSO.
O=C(N[C@H]1CN2CCC1CC2)c1ccc(Cl)cc1: “nuclear SOX9 intensity” 94.6 % of DMSO.

Some of these lines once more (series 1):
For C=CCN1CC[C@]23c4c5ccc(O)c4O[C@H]2C(=O)CC[C@@]3(O)[C@H]1C5, the inhibition was -9.6%.
CC(C)CC(N(C)C)C1(c2ccc(Cl)cc2)CCC1 (stereo not drawn) gave an inhibition of -19.3%.
